# Assay results collected from several papers.
# Each numbered part is a random draw from the data of one study; scales do not carry over between parts.

# Set 1
# Target: Interferon regulatory factor 7, full length, phosphomimetic (IRF7, Homo sapiens, UniProt Q92985, residues 1-503, S101K/S471D/S472D/S475D/S476D/S477D/S483D/S484D/S487D)
# Method: protein-binding microarray
# Molecule type: double-stranded DNA, one strand shown
# Medium: in vitro
# Concentration: 250 nM
# Notes: 60-bp whole probe
# With: salmon DNA 0.4 mg/ml
# Relative to: random background probes
# Direction: higher = stronger binding
# Shared flanks, not repeated: GCCTAGCAC … GTCTTGATTCGCTTGACGCTGCTG
# Target sequence (chain): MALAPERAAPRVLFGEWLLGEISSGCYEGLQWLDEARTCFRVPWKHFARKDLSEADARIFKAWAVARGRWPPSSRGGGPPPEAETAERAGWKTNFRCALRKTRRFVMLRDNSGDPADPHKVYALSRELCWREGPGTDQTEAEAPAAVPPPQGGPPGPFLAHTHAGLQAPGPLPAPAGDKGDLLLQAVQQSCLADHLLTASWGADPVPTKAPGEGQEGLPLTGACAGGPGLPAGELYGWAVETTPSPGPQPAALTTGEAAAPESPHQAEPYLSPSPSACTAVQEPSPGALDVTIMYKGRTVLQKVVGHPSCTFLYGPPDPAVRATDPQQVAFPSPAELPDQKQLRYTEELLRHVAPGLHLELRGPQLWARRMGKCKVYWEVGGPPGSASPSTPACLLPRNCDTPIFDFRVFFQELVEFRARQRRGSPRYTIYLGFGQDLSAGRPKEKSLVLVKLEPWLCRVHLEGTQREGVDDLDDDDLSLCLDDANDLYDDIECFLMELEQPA
Oligonucleotide,log fluorescence
GGCGGACTGGACACTGGGGACGTGCTA,-1.09 z-score
CTTTCTATCTCTGTTTTTGCGTGCTAG,2.17 z-score
GACGAACTGGGGTTTCGAGAGGTGCTA,0.576 z-score
TCATTTTCCATTTTGTGACTGTGCTAG,4.61 z-score
GACGCTTTCAGTCTCGAGACGTGCTAG,0.882 z-score
GACGTTTTCGACTATCGGGACGTGCTA,1.48 z-score
TTAGATCTCAGACTGGATTCGTGCTAG,0.322 z-score
GACGGACTGGGTCTCCGGACGTGCTAG,-0.555 z-score
GAGGGACTGCTTCTCCTGACGTGCTAG,-0.281 z-score
TACTCTTGTGACTATGGACCGTGCTAG,0.593 z-score
GACGGTATCGGTCTCGGTACGTGCTAG,0.913 z-score
TTAGGTATCGGTATCGTTTAGTGCTAG,3.04 z-score
GACCAACTGGGGACTGGAGACGTGCTA,-0.389 z-score
TCAGGTATCGACTTTCGGTTAGTGCTA,3.2 z-score
GTCATTATCCTTGTCCCTCCGTGCTAG,0.755 z-score
TTAGGTTTCGGGGTTCGGTTAGTGCTA,4.44 z-score
TTAGATTTCAGTTTCGGTTAGTGCTAG,9.15 z-score
GACGGTTTCCTTATCCAGACGTGCTAG,3.06 z-score
TTAGGTATCAGACTGGATTAGTGCTAG,-0.156 z-score

# Set 2
# Target: Prothrombin, mature alpha-thrombin (F2, Homo sapiens, UniProt P00734)
# Method: aptamer microarray, sandwich
# Molecule type: DNA with 2'F-ANA
# Medium: in vitro
# Concentration: 200 nM
# Notes: whole 15-mer aptamer, many near background
# With: Cy3 exosite-II aptamer, 400 nM
# Direction: higher = stronger binding
# Oligonucleotide: GGTTGGTGTGGTTGG
Modification,mean fluorescence intensity
2'F-ANA at 1 3 7 8 9 10 13 14 15,60.1 a.u.
2'F-ANA at 4 6 7 8 10 15,83.2 a.u.
2'F-ANA at 3 4 7 8 11 12 13,921 a.u.
2'F-ANA at 2 6 8 9 11 12,526 a.u.
2'F-ANA at 4 7 9 12 14,114 a.u.
2'F-ANA at 8 10 11 14,97.9 a.u.
2'F-ANA at 8 9 10 11 12 14,106 a.u.
2'F-ANA at 5 6 8 15,81.3 a.u.
2'F-ANA at 2 3 4 7 10 11 12 15,344 a.u.
2'F-ANA at 1 2 6 11 12 14,56.7 a.u.
2'F-ANA at 2 3 9 12 14,497 a.u.
2'F-ANA at 2 3 5 6 9 10 11 13 14,45.8 a.u.
2'F-ANA at 1 2 4 6 7 9 13 15,174 a.u.
2'F-ANA at 1 2 3 10 11 12 14,62.1 a.u.
2'F-ANA at 10 11 13 15,147 a.u.
2'F-ANA at 1 3 5 6 10 11 15,47 a.u.
2'F-ANA at 1 3 8 9 11 13 14 15,146 a.u.
2'F-ANA at 1 2 4 5 6 8 9 10 11 13 14 15,65.2 a.u.
2'F-ANA at 1 2 3 5 8 10 11 13 14,45.3 a.u.
2'F-ANA at 5 8 10 13 15,43.7 a.u.
2'F-ANA at 2 3 5 6 12 13 14,53.3 a.u.
2'F-ANA at 1 2 5 6 8 15,65.9 a.u.
2'F-ANA at 6 10 12 14,107 a.u.
2'F-ANA at 7 9 10 11 12,192 a.u.

# Set 3
# Target: Myc proto-oncogene protein, bHLH-zipper, MAX partner unstated (MYC, Homo sapiens, UniProt P01106, residues 368-449)
# UniProt P01106, sequence (368-449, looked up): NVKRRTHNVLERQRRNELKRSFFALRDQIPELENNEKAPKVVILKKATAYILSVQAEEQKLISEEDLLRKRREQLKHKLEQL
# Method: protein-binding microarray
# Molecule type: double-stranded DNA, one strand shown
# Medium: in vitro
# Concentration: not given
# Notes: k-mer, scored over probes, only values ≥0.25
# Direction: higher = stronger binding
Oligonucleotide,E-score
CCGCGCCC,0.258
CGTGTGGA,0.296
GCTACCAC,0.288
ATGTGGAC,0.303
CATGGTCA,0.369
CGTGGACC,0.32
AGACCACG,0.421
ACTCGTGC,0.379
AGGCGCAT,0.28
CATGCATG,0.438
GCATGGGA,0.403
CACACGAG,0.393
ATGCACGA,0.312
CGGACACG,0.382
CCGTGCAC,0.273
ATGTGCCC,0.356
CCGCATGC,0.452
GTCGTGCA,0.259
ACAACATG,0.346
GATCATGC,0.292
CTCCCCAA,0.302
CCGAGGAA,0.251
CACCGTGC,0.282
TCATGGCA,0.275
AACGTGGT,0.439

# Set 4
# Target: Histone acetyltransferase KAT6A, winged helix 1, GST fusion (KAT6A, Homo sapiens, UniProt Q92794, residues 1-85)
# Method: protein binding microarray
# Molecule type: double-stranded DNA, one strand shown
# Medium: in vitro
# Concentration: not given
# Notes: 8-mer, flanks averaged, mean of 2 arrays, mostly near background
# Relative to: not given
# Direction: higher = stronger binding
# Target sequence (chain): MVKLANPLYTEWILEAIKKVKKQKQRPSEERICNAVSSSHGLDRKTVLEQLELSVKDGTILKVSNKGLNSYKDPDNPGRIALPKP
Oligonucleotide,E-score
TTCCCCAA,-0.202
ATCTACCG,0.119
AAGCATTG,-0.0837
GGGTACAA,-0.132
CGCCTACG,0.239
CGCTGGAA,0.246
CGAATTCG,0.146
GCTCTAGA,-0.0168
CACTAGGA,-0.0417
AATAAGCG,0.118
ATTTGGAA,-0.232
AAAAAAGA,-0.214
CCATTTAC,-0.0755
ACCGTGTG,0.161
CGGCAGTA,0.338
GGGCCCCC,0.0563
CGATCCTC,-0.108
CAGAAAAA,-0.215

# Set 5
# Target: RNA binding protein fox-1 homolog 2, RRM domain, GST-SBP tag (RBFOX2, Homo sapiens, UniProt O43251-10, residues 100-194)
# Method: RNA Bind-n-Seq
# Molecule type: RNA
# Medium: in vitro
# Concentration: 365 nM
# Notes: natural RNA segment, single round, ends assumed
# Relative to: no-protein control
# Direction: higher = stronger binding
# Shared flanks, not repeated: GGGAGUUCUACAGUCCGACGAUC … UGGAAUUCUCGGGUGCCAA
Oligonucleotide,RBNS enrichment (R)
CCCAGUAUCCUCUUGUAUGACUGUAUAUGUCUAUGUCUGGGAUCCAGGGCAAAUGUGAAUUUUCUUUUGAUUUGGGAGAUUGUUCACAGGAAGUAGUCCUCCCCUCUCAU,0.482
AAAAAGCAAAUCUUUCUGUAAACAGAAUAAAAGUUCCUCUCCCUUCCCUUCCCUCACCCCUGACAUGUACCCCCUUUCCCUUCUGGCUGUUCCCCUGCUCUGUUGCCUCU,1.59
GAUUUCUUGGUUAGGUUGCAUUAUAAUAACAAGAGUCAGAACAUUAAUUCGAAACAACUUGCAGUAUGCAUUUCUUCACACCAGUACAUUCUUAAGUGUACUUGUUUAUA,1.21
GGGAGAGGCCUCGGCUGUCUCCUGUCCCCGGCGGGGUGCCUGCUGUCCGUCCCGCUUUCAUGUUACUGUUGCAGCUUGUGCUGAGCCUGCCCAGUUGGAGGAGACUGGGC,1.21
UGGAUCCAGAUUUUAUGUUAACAUGGCAGCAAAACUAGGAAAAUGGGAAGAAAUUACUUGCGGGGUGUUCUAGAUCUGAUUUUUUUUUUUUUUUUGAAAGUUUCAGCCUG,1
UUGCCGGGGAGGAGGAUGCUCUGAGAUUCAGGGUGGGGCUGGCAACCCCUGAAGAGAACACUUCCUGUUGGUCUGUCUCUUCCCACCUUCCAUCUGCACACACCCCCAAG,0.706
CAUUUCACUGAUUGGAAUGUGGAAAUGGAAAAGGAAUUUAGGAUGUGCAUUUUCACCUGAGGUUUCCCUGCAUCCCUGCAGUGCCAAAGCCCCACCUUCAGGGACCACCU,2.74
GCCCUACUUCCGCUCGAUGCUGCCAAUGUCACCAACAGCAAUGGGGCCCACCAUCAGCCUGGACCUGGACGUGGAUGAUGUGGAGAUGGAGAACUAUGAGGCCCUCCUGA,0.464

# Excerpt of the above (set 1):
Oligonucleotide,log fluorescence
GACGGACTGGGTCTCCGGACGTGCTAG,-0.555 z-score
GACGAACTGGGGTTTCGAGAGGTGCTA,0.576 z-score
TTAGATTTCAGTTTCGGTTAGTGCTAG,9.15 z-score
TTAGATCTCAGACTGGATTCGTGCTAG,0.322 z-score
TTAGGTTTCGGGGTTCGGTTAGTGCTA,4.44 z-score
GAGGGACTGCTTCTCCTGACGTGCTAG,-0.281 z-score
GACGGTTTCCTTATCCAGACGTGCTAG,3.06 z-score
GACGCTTTCAGTCTCGAGACGTGCTAG,0.882 z-score
TCAGGTATCGACTTTCGGTTAGTGCTA,3.2 z-score
GGCGGACTGGACACTGGGGACGTGCTA,-1.09 z-score
